Published values of several laboratories.
Compare with care: the assays were run in different laboratories. “And” joins repeats or separate records; there may be more than shown. ± gives the spread as reported.
Luciferin 4-monooxygenase: Luciferin 4-monooxygenase (Photinus pyralis, UniProt P08659)
UniProt P08659, sequence (whole entry, looked up): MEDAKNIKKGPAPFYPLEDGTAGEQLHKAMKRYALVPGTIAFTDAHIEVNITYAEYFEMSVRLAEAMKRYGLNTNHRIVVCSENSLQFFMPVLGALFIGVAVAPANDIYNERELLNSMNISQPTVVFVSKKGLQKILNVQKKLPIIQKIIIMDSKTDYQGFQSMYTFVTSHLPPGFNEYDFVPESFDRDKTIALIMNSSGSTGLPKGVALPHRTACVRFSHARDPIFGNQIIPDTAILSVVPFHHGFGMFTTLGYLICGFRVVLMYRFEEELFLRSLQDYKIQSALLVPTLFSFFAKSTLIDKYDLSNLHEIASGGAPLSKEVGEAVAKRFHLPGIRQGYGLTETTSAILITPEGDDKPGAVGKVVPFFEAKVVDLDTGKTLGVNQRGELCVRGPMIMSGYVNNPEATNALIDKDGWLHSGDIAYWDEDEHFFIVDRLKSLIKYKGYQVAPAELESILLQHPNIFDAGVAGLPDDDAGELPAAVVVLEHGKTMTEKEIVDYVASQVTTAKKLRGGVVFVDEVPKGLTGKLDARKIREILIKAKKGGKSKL
Palmitoyl-protein thioesterase 1: Palmitoyl-protein thioesterase 1 (Homo sapiens, UniProt P50897)
UniProt P50897, sequence (whole entry, looked up): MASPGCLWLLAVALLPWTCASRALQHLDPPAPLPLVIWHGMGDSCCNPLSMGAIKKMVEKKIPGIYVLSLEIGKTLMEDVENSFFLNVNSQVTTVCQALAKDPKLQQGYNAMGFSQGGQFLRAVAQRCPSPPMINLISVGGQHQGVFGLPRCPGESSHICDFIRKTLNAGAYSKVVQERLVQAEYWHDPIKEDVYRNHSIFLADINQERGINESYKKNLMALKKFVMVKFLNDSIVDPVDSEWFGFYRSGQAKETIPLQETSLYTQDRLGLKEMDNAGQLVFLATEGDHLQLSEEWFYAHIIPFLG
DRD1: D(1A) dopamine receptor (DRD1, Homo sapiens, UniProt P21728)
UniProt P78508, sequence (whole entry, looked up): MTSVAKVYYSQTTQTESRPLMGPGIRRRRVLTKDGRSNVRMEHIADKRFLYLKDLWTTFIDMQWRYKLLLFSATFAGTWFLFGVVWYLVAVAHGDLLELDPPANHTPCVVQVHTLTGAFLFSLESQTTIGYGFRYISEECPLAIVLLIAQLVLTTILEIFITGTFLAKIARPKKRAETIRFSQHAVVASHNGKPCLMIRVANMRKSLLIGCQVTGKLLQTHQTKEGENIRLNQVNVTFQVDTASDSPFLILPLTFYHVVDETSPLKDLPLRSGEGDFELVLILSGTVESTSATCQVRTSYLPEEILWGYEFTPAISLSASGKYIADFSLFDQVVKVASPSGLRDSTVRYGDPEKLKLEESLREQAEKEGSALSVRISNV
UniProt Q8IWT6, sequence (whole entry, unmodified, looked up): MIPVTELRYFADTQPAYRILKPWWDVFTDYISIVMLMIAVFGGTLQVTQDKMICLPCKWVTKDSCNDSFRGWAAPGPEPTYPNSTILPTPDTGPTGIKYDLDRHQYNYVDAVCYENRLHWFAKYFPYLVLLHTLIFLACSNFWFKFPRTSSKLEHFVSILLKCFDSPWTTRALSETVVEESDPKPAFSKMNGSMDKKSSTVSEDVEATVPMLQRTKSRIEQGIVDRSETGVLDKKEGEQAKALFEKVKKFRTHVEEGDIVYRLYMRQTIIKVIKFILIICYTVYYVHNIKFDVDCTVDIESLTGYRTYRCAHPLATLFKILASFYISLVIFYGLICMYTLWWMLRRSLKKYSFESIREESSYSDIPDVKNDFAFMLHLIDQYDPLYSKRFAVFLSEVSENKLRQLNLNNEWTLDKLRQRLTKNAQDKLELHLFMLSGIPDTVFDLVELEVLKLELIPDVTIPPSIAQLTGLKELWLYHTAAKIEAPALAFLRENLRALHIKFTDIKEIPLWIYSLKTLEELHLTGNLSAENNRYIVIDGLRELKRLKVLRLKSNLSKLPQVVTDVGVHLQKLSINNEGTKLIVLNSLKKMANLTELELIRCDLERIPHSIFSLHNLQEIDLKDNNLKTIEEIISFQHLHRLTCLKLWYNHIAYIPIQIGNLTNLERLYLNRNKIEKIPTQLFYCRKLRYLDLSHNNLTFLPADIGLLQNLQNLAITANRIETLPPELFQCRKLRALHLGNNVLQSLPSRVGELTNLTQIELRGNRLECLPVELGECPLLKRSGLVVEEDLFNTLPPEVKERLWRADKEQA
UniProt P21728, sequence (whole entry, looked up): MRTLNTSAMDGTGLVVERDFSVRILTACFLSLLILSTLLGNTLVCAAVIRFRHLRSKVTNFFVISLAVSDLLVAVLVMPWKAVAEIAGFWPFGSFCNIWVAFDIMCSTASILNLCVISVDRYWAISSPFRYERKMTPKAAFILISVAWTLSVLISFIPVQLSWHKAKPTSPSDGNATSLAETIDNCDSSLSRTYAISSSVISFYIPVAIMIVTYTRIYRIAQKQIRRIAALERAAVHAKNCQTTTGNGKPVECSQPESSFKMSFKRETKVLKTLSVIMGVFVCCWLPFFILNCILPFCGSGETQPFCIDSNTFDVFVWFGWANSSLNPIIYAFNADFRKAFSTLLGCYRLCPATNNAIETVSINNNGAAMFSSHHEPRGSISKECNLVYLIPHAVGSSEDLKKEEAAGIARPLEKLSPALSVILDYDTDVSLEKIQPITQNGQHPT
UniProt P23975, sequence (whole entry, looked up): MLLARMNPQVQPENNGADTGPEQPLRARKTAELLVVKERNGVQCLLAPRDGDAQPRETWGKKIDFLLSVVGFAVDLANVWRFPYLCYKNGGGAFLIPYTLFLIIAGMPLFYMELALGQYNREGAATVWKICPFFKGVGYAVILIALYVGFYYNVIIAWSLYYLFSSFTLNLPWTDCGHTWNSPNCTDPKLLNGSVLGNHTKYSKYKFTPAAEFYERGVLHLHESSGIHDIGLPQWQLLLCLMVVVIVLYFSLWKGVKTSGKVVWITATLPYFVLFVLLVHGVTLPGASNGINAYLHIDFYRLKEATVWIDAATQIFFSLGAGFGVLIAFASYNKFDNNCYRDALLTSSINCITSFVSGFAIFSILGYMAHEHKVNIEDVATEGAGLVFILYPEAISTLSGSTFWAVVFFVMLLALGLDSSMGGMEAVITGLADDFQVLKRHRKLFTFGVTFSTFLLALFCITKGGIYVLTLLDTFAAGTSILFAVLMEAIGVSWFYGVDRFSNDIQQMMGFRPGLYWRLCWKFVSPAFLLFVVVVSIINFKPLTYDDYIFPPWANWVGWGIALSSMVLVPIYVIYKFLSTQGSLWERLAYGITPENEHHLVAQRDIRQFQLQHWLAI
UniProt P28566, sequence (whole entry, looked up): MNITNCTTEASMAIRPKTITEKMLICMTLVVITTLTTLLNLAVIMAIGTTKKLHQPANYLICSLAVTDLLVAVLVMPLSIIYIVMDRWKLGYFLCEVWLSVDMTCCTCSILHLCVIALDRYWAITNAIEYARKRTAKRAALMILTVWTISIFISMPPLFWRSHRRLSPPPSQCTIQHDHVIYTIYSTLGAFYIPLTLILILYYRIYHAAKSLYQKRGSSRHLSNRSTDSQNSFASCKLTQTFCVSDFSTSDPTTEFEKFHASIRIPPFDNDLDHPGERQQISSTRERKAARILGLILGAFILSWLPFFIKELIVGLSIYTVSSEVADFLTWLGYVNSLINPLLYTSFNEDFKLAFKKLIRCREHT
UniProt Q86Y07, sequence (whole entry, looked up): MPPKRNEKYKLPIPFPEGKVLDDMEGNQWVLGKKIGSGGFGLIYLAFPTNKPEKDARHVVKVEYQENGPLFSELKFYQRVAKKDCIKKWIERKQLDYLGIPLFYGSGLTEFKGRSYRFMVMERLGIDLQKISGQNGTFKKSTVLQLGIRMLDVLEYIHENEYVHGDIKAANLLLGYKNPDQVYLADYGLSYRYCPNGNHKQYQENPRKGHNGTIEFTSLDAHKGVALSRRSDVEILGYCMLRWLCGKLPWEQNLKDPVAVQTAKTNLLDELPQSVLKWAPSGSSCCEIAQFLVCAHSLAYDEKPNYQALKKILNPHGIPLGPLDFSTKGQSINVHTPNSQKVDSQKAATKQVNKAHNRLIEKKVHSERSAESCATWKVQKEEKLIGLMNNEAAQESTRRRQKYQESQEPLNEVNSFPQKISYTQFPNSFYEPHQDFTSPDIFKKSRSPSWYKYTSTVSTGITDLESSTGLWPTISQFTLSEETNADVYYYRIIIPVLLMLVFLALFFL
UniProt Q8N884, sequence (whole entry, looked up): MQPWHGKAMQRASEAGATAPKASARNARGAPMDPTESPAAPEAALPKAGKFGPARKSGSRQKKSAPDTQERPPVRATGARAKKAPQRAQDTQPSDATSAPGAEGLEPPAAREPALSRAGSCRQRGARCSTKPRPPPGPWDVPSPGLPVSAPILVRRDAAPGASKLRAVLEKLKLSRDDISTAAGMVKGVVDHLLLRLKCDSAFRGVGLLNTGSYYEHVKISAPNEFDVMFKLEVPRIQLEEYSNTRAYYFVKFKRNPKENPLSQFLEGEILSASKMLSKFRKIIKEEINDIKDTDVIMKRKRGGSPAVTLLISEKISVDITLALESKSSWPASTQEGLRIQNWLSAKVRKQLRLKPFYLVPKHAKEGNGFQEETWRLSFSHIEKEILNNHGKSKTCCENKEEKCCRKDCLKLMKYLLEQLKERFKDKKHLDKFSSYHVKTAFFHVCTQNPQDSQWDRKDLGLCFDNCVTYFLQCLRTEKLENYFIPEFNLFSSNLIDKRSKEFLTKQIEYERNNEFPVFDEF

| Structure (SMILES) | tested on | assay | system | setting | inhibition |
| --- | --- | --- | --- | --- | --- |
| COc1cccc(OC[C@H]2CN(CCN3CCc4ccccc43)CCO2)c1 | HTR1E (Homo sapiens, UniProt P28566) | radioligand binding | – | concentration not given, added: [3H]5-HT | -15.1% |
| OC[C@H]1O[C@H](O[C@]2(CCl)O[C@H](CCl)[C@@H](O)[C@@H]2O)[C@H](O)[C@@H](O)[C@H]1Cl | THP-1 | pyroptotic LDH release | – | 2 µM, 40 min, added: LPS then nigericin | 30.7% |
| Cc1cccc(N(O)N=Nc2ccc(S(=O)(=O)Nc3nccs3)cc2)c1 | α-glucosidase, rat intestine | enzyme activity | – | 20 µg/mL, added: 4-nitrophenyl α-D-glucopyranoside | 5 ± 0.041% |
| C[C@H]1[C@H](OC(=O)CCC(=O)O)O[C@@H]2O[C@@]3(C)CC[C@H]4[C@H](C)CC[C@@H]1[C@@]24OO3 | Non-structural polyprotein pORF1, RNA-dependent RNA polymerase (Hepatitis E virus genotype 1, UniProt P33424) | polymerase activity, colorimetric | – | 78 µM | 40.5% |
| Cc1nn(-c2nc3ccccc3s2)c(O)c1C(c1ccccc1C(=O)O)c1c(C)nn(-c2nc3ccccc3s2)c1O | Cyclic GMP-AMP synthase, catalytic domain; with DNA (CGAS, Homo sapiens, UniProt Q8N884) | cGAS phase separation, inhibitor | – | 2.5 µM | 91.7% |
| O=C(Nc1cccc2c(=O)cc(-c3nnn[nH]3)oc12)c1ccc(OCCCCc2ccccc2)cc1 | LRRC8A/LRRC8C (Homo sapiens, UniProt Q8IWT6+Q8TDW0, Y124F/Y126F) | ion current, whole-cell patch clamp | HCT LRRC8-/- cells | 10 µM, +100 mV, Y124F/Y126F heteromers | 15.7% and 26.7% and 0.528% and 75.3% and 28.9% and 23.4% |
| O=C(Cn1cncn1)N1CCc2onc(-c3cccc4ccccc34)c2C1 | Luciferin 4-monooxygenase | luciferase luminescence, inhibitor | cell-free | 50 µM, counter-screen | 1.3% |
| FC(F)(F)C1=C/C(=C\CCCCCCOCc2ccccc2)c2cc3c(cc21)OCO3 | P4HB (Homo sapiens, UniProt P07237) | enzyme activity, inhibitor, insulin reduction | – | concentration not given, biochemical | no effect |
| CCCN(O)N=Nc1ccc(S(=O)(=O)Nc2onc(C)c2C)cc1 | α-glucosidase, rat intestine | enzyme activity | – | 120 µg/mL, added: 4-nitrophenyl α-D-glucopyranoside | 27.5 ± 0.09% |
| O=S(=O)(c1cccc2cnccc12)N1CCCNCC1 | Palmitoyl-protein thioesterase 1 | Spectrum Collection screen | – | concentration not given, added: substrate 20 µM | 62% |
| Cc1ccc(C(=O)Nc2ccc(Oc3cc4cnn(C)c4cc3-c3cn[nH]c3)c(F)c2)c(=O)n1-c1ccc(F)cc1 | THP-1 | pyroptotic LDH release | – | 2 µM, 40 min, added: LPS then nigericin | 26.9% |
| CCC1=NOC(Cn2ncc(N3CCc4ccccc4C3)cc2=O)C1 (stereo not drawn) | Luciferin 4-monooxygenase | luciferase luminescence, inhibitor | cell-free | 50 µM, counter-screen | 91.3% |
| CCN(O)N=Nc1ccc(S(=O)(=O)Nc2cc(C)on2)cc1 | α-glucosidase, rat intestine | enzyme activity | – | 20 µg/mL, added: 4-nitrophenyl α-D-glucopyranoside | 20 ± 1.38% |
| CC(C)c1noc2ncc(C(=O)c3ccccc3O)cc12 | ATP-sensitive inward rectifier potassium channel 10 (Homo sapiens, UniProt P78508) | ion current, inhibitor, whole-cell patch clamp | – | 10 µM | 6.64% and 3.35% and 3.37% and 8.03% and 2.19% |
| Clc1cncc(OC[C@@H]2CN(CCN3CCc4ccccc43)CCO2)c1 | DRD1 | radioligand binding | – | concentration not given, added: [3H]SCH23390 | 93.6% |
| CCCN(O)N=Nc1ccc(S(=O)(=O)Nc2nccs2)cc1 | α-glucosidase, rat intestine | enzyme activity | – | 20 µg/mL, added: 4-nitrophenyl α-D-glucopyranoside | 15 ± 1.26% |
| CCN1/C(=C/C(C)=O)Sc2ccc(F)cc21 | SLC6A2 (Homo sapiens, UniProt P23975) | – | – | 10 µM | 15.3% |
| CCCN(O)N=Nc1ccc(S(=O)(=O)Nc2cc(C)on2)cc1 | α-glucosidase, rat intestine | enzyme activity | – | 60 µg/mL, added: 4-nitrophenyl α-D-glucopyranoside | 22.5 ± 0.16% |
| Cc1cc2c(s1)Nc1ccccc1N=C2N1CCN(C)CC1 | Palmitoyl-protein thioesterase 1 | Spectrum Collection screen | – | concentration not given, added: substrate 20 µM | 61.1% |
| CC[C@@H]1[C@H](F)C(=O)N[C@@H]1COc1nccc2cc(C(N)=O)c(OC)cc12 | VRK2 (Homo sapiens, UniProt Q86Y07) | ATP-site probe binding, ActivX profiling | THP-1 cell lysate | 0.01 mM, Lys2 site | -16.6% |
| COc1cc2c(cc1OC)C(=O)N(CCCCN1CCN(c3ccccc3OC)CC1)C2 | DRD1 | radioligand binding | – | concentration not given, added: [3H]SCH23390 | 91.3% |

Some of these lines once more:
| Structure (SMILES) | tested on | assay | system | setting | inhibition |
| --- | --- | --- | --- | --- | --- |
| Cc1cccc(N(O)N=Nc2ccc(S(=O)(=O)Nc3nccs3)cc2)c1 | α-glucosidase, rat intestine | enzyme activity | – | 20 µg/mL, added: 4-nitrophenyl α-D-glucopyranoside | 5 ± 0.041% |
| O=S(=O)(c1cccc2cnccc12)N1CCCNCC1 | Palmitoyl-protein thioesterase 1 | Spectrum Collection screen | – | concentration not given, added: substrate 20 µM | 62% |
| Clc1cncc(OC[C@@H]2CN(CCN3CCc4ccccc43)CCO2)c1 | DRD1 | radioligand binding | – | concentration not given, added: [3H]SCH23390 | 93.6% |
